Measured values gathered from unrelated publications.
Lines come from different studies, so protocols differ. Numbers after ± are the reported error.
UniProt Q71U36, sequence (whole entry, looked up): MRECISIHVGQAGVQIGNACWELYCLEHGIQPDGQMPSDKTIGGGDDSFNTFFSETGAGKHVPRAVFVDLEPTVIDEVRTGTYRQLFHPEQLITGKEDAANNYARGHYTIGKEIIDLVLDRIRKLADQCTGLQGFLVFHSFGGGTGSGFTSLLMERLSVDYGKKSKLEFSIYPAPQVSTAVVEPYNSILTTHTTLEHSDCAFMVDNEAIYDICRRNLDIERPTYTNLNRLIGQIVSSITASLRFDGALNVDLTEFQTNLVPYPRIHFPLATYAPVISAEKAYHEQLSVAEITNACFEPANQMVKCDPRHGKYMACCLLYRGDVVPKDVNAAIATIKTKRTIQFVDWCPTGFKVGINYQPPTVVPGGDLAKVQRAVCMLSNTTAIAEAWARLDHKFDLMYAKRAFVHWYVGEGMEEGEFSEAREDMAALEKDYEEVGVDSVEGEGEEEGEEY

| Compound | target or system | test | system | conditions | scale | measurement | value |
| --- | --- | --- | --- | --- | --- | --- | --- |
| CO[C@H]1C[C@@H]2CC[C@@H](C)[C@@](O)(O2)C(=O)C(=O)N2CCCC[C@H]2C(=O)O[C@H]([C@H](C)C[C@@H]2CC[C@@H](OC(=O)NCCOCCOCCOCCOCCOCCOCCOCCOCCC(=O)N3CCc4cc(Cn5nc(-c6ccc7oc(N)nc7c6)c6c(N)ncnc65)ccc4C3)[C@H](OC)C2)C[C@@H](O)[C@H](C)/C=C(\C)[C@@H](O)[C@@H](OC)C(=O)[C@H](C)C[C@H](C)/C=C/C=C/C=C/1C |  |  | patients with advanced solid tumours | intravenous, 1.6 mg/3 mg weekly, grade ≥3 |  | incidence of Vomiting TRAE | 0% |
| C[C@H]1CN(c2n[nH]c3nc(N[C@H]4CC[C@H](NS(=O)(=O)CCC(F)(F)F)CC4)ncc23)CCO1 | Tubulin alpha-1A chain (Homo sapiens, UniProt Q71U36) | biochemical |  |  |  | IC50 | ≥ 20 µM |
| CC(C)CC(=O)OC[C@H]1O[C@@](C#N)(c2ccc3c(N)ncnn23)[C@H](O)[C@@H]1O |  |  | dog whole blood | 5 µM, 30 min |  | remaining compound | 47.2 ± 3.3% |
| C=C(CN(C(=O)c1c(C(F)F)nn(C)c1F)C1CC1)c1ccc(Cl)cc1Cl |  | static acute toxicity test | zebrafish (Brachydanio rerio) | 0.482 mg a.i./L, 96 h |  | mortality | 0% |
| NCCCC[C@@H]1NC(=O)[C@@H](Cc2c[nH]c3ccccc23)NC(=O)[C@H](c2ccccc2)NC(=O)[C@@H]2C[C@@H](OC(=O)NCCN)CN2C(=O)[C@H](Cc2ccccc2)NC(=O)[C@H](Cc2ccc(OCc3ccccc3)cc2)NC1=O |  |  | healthy human volunteers | 600 µg twice daily |  | subjects with injection-site pruritus | 19% |
| COc1ccc2c(c1)CN(C(=O)CCN1CCC(Cc3ccccc3)CC1)CC[S@@+]2[O-] |  |  | dogs, chronic AV block | intravenous, 1 and 3 mg/kg |  | short-term variability of QT | no effect |
| CCN1CCN(Cc2ccc(Nc3ncc(F)c(-c4cc(F)c5nc6n(c5c4)[C@H](C)CCC6)n3)nc2)CC1 |  |  | advanced solid tumour patients | dose not given, Phase Ia monotherapy |  | Hypercholesterolemia incidence, any grade | 62.5% |
| COc1ccc2nc3cc(Cl)ccc3c(Nc3cc(CN4CCCC4)c(O)c(CN4CCCC4)c3)c2n1 |  |  | mouse, blood | intraperitoneal, 57 mg/kg |  | AST activity | 57.4 U/L |
| COc1cc2c(Oc3ccc4[nH]c(C)cc4c3F)ccnc2cc1OCC1(N)CC1 |  |  | paediatric recurrent refractory sarcoma | 10 mg |  | grade 3 ALP elevation | 0% |
| Nc1ncnc2c1ncn2[C@@H]1O[C@@H]2COP(=O)([S-])O[C@@H]3[C@H](O)[C@@H](COP([O-])(=S)O[C@H]2[C@H]1O)O[C@H]3n1cnc2c(N)ncnc21.[Na+].[Na+] (stereo partly drawn) |  |  | non-tumor-bearing mice, blood | intravenous, 1 mg/kg, toxicity study |  | monocyte percentage | 5.5 ± 6.7% |
| CCN1[C@@H](C(=O)NC23CCC(C(=O)O)(CC2)CC3)[C@H](c2cccc(Cl)c2F)[C@]2(C(=O)Nc3cc(Cl)ccc32)C12CCCCC2 |  |  | patients with advanced solid tumours | oral, 200 mg |  | Dizziness incidence | 0% |
| CC(C)c1cccc(N=Nc2ccc3[nH]cc(CCN(C)C)c3c2)c1 |  | light irradiation | solution | with: light 385 nm |  | cis isomer at photostationary state | 81% |
| COc1ncccc1-c1cnn2ccc(N3CCN(C(=O)OC(C)C)CC3)nc12 |  |  | rat, rotarod test, brain | 60 mg/kg, 180 min |  | drug concentration | 10.3 µM |
| CCNCCCNC/C=C\CNCCCNCC |  |  | human, advanced solid tumours | intravenous, dose not given | reference: patients | serious TEAE, abdominal pain | 6.5% |
| COc1ccc(-c2c(-c3ccc(C#N)c(F)c3)nc(N3CCC(N)CC3)n(C)c2=O)cc1F |  | measured: small intestinal obstruction | human patients | oral, 60 mg, dose expansion |  | serious TEAE incidence | 0% |

Excerpt of the above:
| Compound | target or system | test | system | conditions | scale | measurement | value |
| --- | --- | --- | --- | --- | --- | --- | --- |
| CO[C@H]1C[C@@H]2CC[C@@H](C)[C@@](O)(O2)C(=O)C(=O)N2CCCC[C@H]2C(=O)O[C@H]([C@H](C)C[C@@H]2CC[C@@H](OC(=O)NCCOCCOCCOCCOCCOCCOCCOCCOCCC(=O)N3CCc4cc(Cn5nc(-c6ccc7oc(N)nc7c6)c6c(N)ncnc65)ccc4C3)[C@H](OC)C2)C[C@@H](O)[C@H](C)/C=C(\C)[C@@H](O)[C@@H](OC)C(=O)[C@H](C)C[C@H](C)/C=C/C=C/C=C/1C |  |  | patients with advanced solid tumours | intravenous, 1.6 mg/3 mg weekly, grade ≥3 |  | incidence of Vomiting TRAE | 0% |
